Assay results collected from several papers.
Protocols differ between the studies behind these lines. Several values in a cell are separate wells, animals, samples, runs or records. Numbers after ± are the reported error.

| SMILES | test | test system | conditions | Cmax |
| --- | --- | --- | --- | --- |
| O=C(CCCCCCC(=O)Nc1ccccc1)NO | LC-MS/MS | human, serum | oral, 200 mg, day 1, first dose median | 161 ng/mL |
| CC(=O)O[C@H]1C(=O)[C@@]2(C)[C@H]([C@H](OC(=O)c3ccccc3)[C@]3(O)C[C@H](OC(=O)[C@H](O)[C@@H](NC(=O)c4ccccc4)c4ccccc4)C(C)=C1C3(C)C)[C@]1(OC(C)=O)CO[C@@H]1C[C@@H]2O | – | human patients on nelfinavir alone, plasma | iv, 100 mg/m^2 over 3 h, cycle 1 | 1760 ± 920 nM |
| C=C[C@@H]1C[C@]1(NC(=O)[C@@H]1C[C@@H]2CN1C(=O)[C@H](C(C)(C)C)NC(=O)O[C@@H]1C[C@H]1CCCCCc1nc3ccc(OC)cc3nc1O2)C(=O)NS(=O)(=O)C1CC1 | – | healthy adult humans, plasma | oral, 100 mg, fixed-dose combination with elbasvir 50 mg, fasted | 39.4 nM |
| C=CC(=O)Nc1cc(Nc2ncc(C(=O)OC(C)C)c(-c3cn(C)c4ccccc34)n2)c(OC)cc1N(C)CCN(C)C | – | human, fasted | oral, 20 mg single dose, arithmetic mean | 3.3 ng/mL |
| CCOc1cc([C@@H](CS(C)(=O)=O)N2C(=O)c3cccc(NC(C)=O)c3C2=O)ccc1OC | – | healthy human, male, plasma | oral, 20 mg single dose, without ketoconazole | 236 ng/mL |
| CC(C)[C@@H](CS(=O)(=O)C(C)C)N1C(=O)[C@@](C)(CC(=O)O)C[C@H](c2cccc(Cl)c2)[C@H]1c1ccc(Cl)cc1 | – | human, plasma | oral, 60 mg, new tablet, fasted, geometric LS mean | 431 ng/mL |
| O=C(NC[C@H](O)CO)c1ccncc1Nc1ccc(I)cc1F | – | human | oral, 60 mg, single dose alone | 332 ng/mL |
| COc1ccc2nc([S@@+]([O-])Cc3ncc(C)c(OC)c3C)[nH]c2c1 | – | human, CYP2C19 ultrarapid metabolizers, plasma | oral, 40 mg/day, day 1 | 7750 ± 3010 ng/mL |
| O=C(CCCCCCC(=O)Nc1ccccc1)NO | – | human patients, serum | oral, 100 mg twice daily, day 5, added: FOLFOX | 702 nM |
| C/C(=C\c1csc(C)n1)[C@@H]1C[C@@H]2O[C@]2(C)CCC[C@H](C)[C@H](O)[C@@H](C)C(=O)C(C)(C)[C@@H](O)CC(=O)N1 | – | human, plasma | intravenous infusion, 70 mg, 3 h infusion | 486 ng/mL and 273 ng/mL and 287 ng/mL and 201 ng/mL and 433 ng/mL and 277 ng/mL and 266 ng/mL and 187 ng/mL |
| C#C[C@]1(O)CC[C@H]2[C@@H]3CCC4=CC(=O)CC[C@@H]4[C@H]3CC[C@@]21CC | – | healthy female human, plasma | oral, 1 Portia tablet, added: no ritlecitinib | 2.9 ng/mL |
| O=C(Cc1cccc(OC(F)(F)F)c1)Nc1ccc(CCCCc2nnc(NC(=O)Cc3ccccn3)s2)nn1 | – | human patients, plasma | oral, 250 mg three times daily fasted, cycle 1 day 15 steady state | 914 ng/mL |
| CN1CCN(C2=Nc3cc(Cl)ccc3Nc3ccccc32)CC1 | – | human, plasma | concentration not given, clinical literature data | 2700 nM |
| O=CC[C@@H](O)[C@H](O)[C@H](O)CO | HPLC-fluorescence | human patients, plasma | oral, 30 mg/kg/day, cycle 1 | 277000 nM |
| O=C(O)CNC(=O)c1c(O)c2ccccc2n(OCC2CC2)c1=O | LC-MS/MS | human, blood | oral, 200 mg multiple doses | 2310 ± 621 ng/mL |
| CNC(=O)c1cc(Oc2ccc(NC(=O)Nc3ccc(Cl)c(C(F)(F)F)c3)cc2)ccn1 | – | human patients, plasma | oral, 400 mg twice daily, day -1, alone, steady state | 12500 nM |
| NC(=O)N1CCC(CC(=O)N2CCC([C@H]3c4ncc(Br)cc4CCc4cc(Cl)cc(Br)c43)CC2)CC1 | – | human, plasma | oral, 150 mg twice daily, cycle 1 day 15, added: gemcitabine 750 mg/m2 | 779 ng/mL |
| COc1cc2nccc(Oc3ccc(NC(=O)NC4CC4)c(Cl)c3)c2cc1C(N)=O | – | human, plasma | oral, 5 mg, arithmetic mean, added: placebo | 45.1 ng/mL |
| Cc1ccc(C(=O)NC2CC2)cc1-n1ncc(C(=O)c2cccc(C#N)c2)c1N | – | human, plasma | oral, 14 mg, geometric mean, added: azithromycin 500 mg daily for three days | 123 ng/mL |
